Measured values gathered from unrelated publications.
A part holds a random share of what one study measured. Changes are numbered by the printed parent chain.

Sample 1
Target: ABI1, truncated, D143A, DHFR fusion (Arabidopsis thaliana)
Technique: DHFR PCA, deep sequencing
Sample: yeast
Setting: methotrexate growth selection, single substitutions
Together with: (+)-ABA 1.4 µM
Relative to: wild-type fitted maximum
Direction: higher = stronger binding
Starting sequence: PYL1, truncated, DHFR fusion (Arabidopsis thaliana); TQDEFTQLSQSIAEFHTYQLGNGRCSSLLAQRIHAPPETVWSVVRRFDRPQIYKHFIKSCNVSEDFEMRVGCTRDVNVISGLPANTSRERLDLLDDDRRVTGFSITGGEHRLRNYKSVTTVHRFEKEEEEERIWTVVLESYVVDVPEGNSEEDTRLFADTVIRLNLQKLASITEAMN
Substitution	relative binding score
L169H	3.55%
N85D	45.8%
Y141C	3.62%
Y115P	-1.95%
K116Q	42.6%
L28K	4.92%
F66C	30.2%
T120A	0.039%
V62Y	1.13%
A175D	46.9%
V44F	-23%
T39F	0.869%
D75E	77.6%
L164E	5.11%
P146F	-21.9%
R24T	58.8%

Sample 2
Target: Ras GTPase-activating protein-binding protein 1, full length (G3BP1, Homo sapiens, UniProt Q13283)
Sequence of UniProt Q13283 (whole entry, looked up): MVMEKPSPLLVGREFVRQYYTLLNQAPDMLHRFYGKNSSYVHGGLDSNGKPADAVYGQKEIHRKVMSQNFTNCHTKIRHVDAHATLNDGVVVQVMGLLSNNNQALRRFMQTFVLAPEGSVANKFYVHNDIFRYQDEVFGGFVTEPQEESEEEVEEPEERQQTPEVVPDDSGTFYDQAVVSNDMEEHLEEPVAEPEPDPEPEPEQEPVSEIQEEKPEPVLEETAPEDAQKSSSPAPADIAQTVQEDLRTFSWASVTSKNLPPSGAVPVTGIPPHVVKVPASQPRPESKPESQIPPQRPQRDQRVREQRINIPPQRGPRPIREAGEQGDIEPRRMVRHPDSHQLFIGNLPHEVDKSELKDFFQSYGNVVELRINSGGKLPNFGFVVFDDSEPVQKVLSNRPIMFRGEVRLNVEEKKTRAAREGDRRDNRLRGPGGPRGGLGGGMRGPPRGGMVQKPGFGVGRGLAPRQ
Technique: RNA Bind-n-Seq
Form: RNA
Sample: in vitro
Tested at: 200 nM
Setting: whole 134-nt RNA, ends assumed
Together with: 150 mM LiCl
Relative to: input library
Direction: higher = stronger binding
Each molecule: 7-deaza-guanosine replaces G
Constant ends, left off below: GGGAGUUCUACAGUCCGACGAUC … UGGAAUUCUCGGGUGUCAAGG
Sequence	log2 enrichment
GCAGGAAGUAAAAACAAAUGGAAAUGCUUCGGAUAGUGGCAGGAAAGGGGGUUGCUAAGGAAAGGGUGGGAUGGGAGUGGGUAAAGAGUU	0.46
UCAAGUCCUGUGCUACACAUCGUAUGUACCGAAUCGGUGGAAAAAAAGGUUUGGAAAGUAUUAUGUUACGCCGUUCGGAUCUGCACUUCC	-1.15
UGUGCUACACAUCGUAUGUACCGAAUCGGGGAAAAAGGGGUUUUUUUGGGGUUUUUUUGGGGAAAGUAUUAUGUUACGCCGUUCGGAUCU	-1.19
GGCUGCUGGAGUGCCGUGAGCAGGCCGCGGGAACGUCGCCGUCACCUUGUCUCGGGGCCUCGGCGCUGCUUCCCGCCAAAACACGUUUAC	-0.189
UAGGUAUUUCUGGGAAAAGCCAGCUUCUGUUUGCACUGGUCUUCACAACUCGUUACCUGGAUCUUUUUACUUCAUUUAUUUCAUUGUAUA	-1.59
UGGGAGGUGGAUUUUGUUUAUUUUUUUAGCUCAUUUCCAUGGGUGGGAAUUUUUUUUUAAUAUGUGUCAUGAAUAAAGUUGUUUUUGAAA	-0.092
CUGUGCUACACAUCGUAUGUACCGAAUCGGUUUUUUUGGGUUUUUUUGGGGUUUUUUUGGGGAAAGUAUUAUGUUACGCCGUUCGGAUCU	1.6
CCUGUGCUACACAUCGUAUGUACCGAAUCGGGUUUUUUGGGGUUUUUUGGGGUUUUUUGGGAAAGUAUUAUGUUACGCCGUUCGGAUCUG	0.856
UGGGAGGUGGAUUUUGUUUAUUUUUUUAGCUCAUUUCCAGGGGUGGGAAUUUUUUUUUAAUAUGUGACAUGAAUAAAGUUGUUUUUGAAA	-0.573
UGUGCUACACAUCGUAUGUACCGAAUCGGGGUUUUUGGGGUUUUUUUGGGGUUUUUUUGGGGAAAGUAUUAUGUUACGCCGUUCGGAUCU	1.84
GUCCUGUGCUACACAUCGUAUGUACCGAAUCGGGGAAAAAAAGGGGAGGGGUUUGGGGAAAGUAUUAUGUUACGCCGUUCGGAUCUGCAC	-0.669

Sample 3
Target: RING finger protein unkempt homolog, zinc fingers 1-6, GST-SBP tag (UNK, Homo sapiens, UniProt Q9C0B0, residues 30-357)
Technique: RNA Bind-n-Seq
Form: RNA
Sample: in vitro
Tested at: not given
Setting: RNA with constant flanks, human and mouse sites, ends assumed
Relative to: input RNA pool
Direction: higher = stronger binding
Constant ends, left off below: GGGAGUUCUACAGUCCGACGAUC … CAACAGAGGAUUGAGCAUCA
Construct (chain): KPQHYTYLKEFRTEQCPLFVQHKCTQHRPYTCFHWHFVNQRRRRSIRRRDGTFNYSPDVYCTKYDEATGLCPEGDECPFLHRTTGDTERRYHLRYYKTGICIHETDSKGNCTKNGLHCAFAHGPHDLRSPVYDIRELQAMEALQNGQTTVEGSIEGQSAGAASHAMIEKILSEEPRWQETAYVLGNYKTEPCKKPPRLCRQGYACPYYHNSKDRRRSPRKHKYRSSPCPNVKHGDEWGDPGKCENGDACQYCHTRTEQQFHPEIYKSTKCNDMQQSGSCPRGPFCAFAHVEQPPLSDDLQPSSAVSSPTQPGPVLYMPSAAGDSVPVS
Sequence	bound/input enrichment
AAAUUAUUAUUAUGCAACCACAAGGAUCUCUUCUUUCUCAGGGUGUCUAAGCUGCUGGAUUGCUUUUCGCCCAAAUCAAUGUGGUUUCUUUGGAACAUUUUCAGCAAAGGAACGCAUAUG	0.511 ratio
UUUGCCACAGGUGGUUCGGAUGGAUUCGUCAAUAUUUGGGACCCAUUUAACAAGAAGCGCCUGUGCCAGUUCCAUCGGUACCCCACCAGCAUCGCUUCCCUUGCCUUCAGUAAUGACGGA	0.15 ratio
UCCUUUAUGUAUUCUCUUCUACAAUACAACACAUUGAAACUGUAUUUACUUGUUAUGUUGUAAUAUUUUGCUGCUGAAUUUGGGGCUACUUAUAUUCUGCAGAAAAUUAAUUGAAAUACC	0.235 ratio
GUUUUAAAAAUGAACUUCUCCCGCUACACAGAAGUAACAAAUAUGGUAGUCAGUUUUGUAUUUAGAAAUGUAUUGGUAGCAGGGAUGUUUUCAUAAUUUUCAGAGAUUAUGCAUUCUUCA	2.84 ratio
UCCUUGGACCCCAGUCAUAUAGGUGACCUGCAAAAAGCAGACACCAGUAGUCAAGGUGCUUUAGUGUUUCUCUCAAAGGACUACGAAAUAGAAAAUCAAAAUCCCCUGGCCUCUCCUACG	2.35 ratio
CCAUCAGUAUAUUAUAGUCAGUCACCUGCAUAUAACUCCCAGUAUCUUCUCAGACCAGCUGCUAAUGUAACUCCCACCAAGGGUCCAGUUUAUGGCAUGAAUAGGCUUCCACCCCAACAA	0.844 ratio
CAGGAGGUCUUCGACUCCAAGGUGUCCAUCCAGGUGCACCUGGCGGUGAAGCACAGCAAUGAGAAGAAGAUGUACCGCUGCACGGCCUGCAACUGGGACUUCCGCAAGGAGGCUGACCUG	0.0674 ratio
CAGUGGGACGGGGAGCAAAGCCCCAGAGGGGAGCGAAACAGGUGGAAGUACGAGGAAUUUUUAGAUCAUCCAGGCCAUAUCCACAGUAGUCCUUGUCAUGAAAGGCCCAACAAUGUCUCU	0.292 ratio
UUAUGUUUAUUGAUUAAAUAAUAUCAUUUGUCUUUCUGCAGUUAUGAGGCUGCUAGCCUGUGAGGGAAAACCUGUUUGUCUUAUUAGAGUUUCUCCCAAAAUGGUUUCAAAUUGGGAACU	0.368 ratio
GACCCUUACUUCCACGAUCGUGUUGCUUCCUUCUAUGAAGGUCAGGUUGCAAUAUGGGAUCUUAGAAAAUUUGAGAAGCCAGUUUUGACUUUGACUGAACAACCAAAGCCCUUGACAAAG	0.292 ratio
AUGUCACAGUGUUAGCACCCUGCAUGGAUGUGGUCAAAAUAUCAUUCAAGUUGUACUUCCUAGUUUUUAUCAUCAUACUACUAUGUCAUAUGAUUUUCAGACUAAUUUAACAUGAGAAAU	0.699 ratio

Sample 4
Target: CCNB2, cyclin fold, Cln2 fusion (human)
Technique: yeast growth competition, sequencing
Sample: yeast
Setting: weak parent motif
Relative to: not given
Direction: higher = stronger binding
Starting sequence: WEE1 docking peptide (human); HKTFRKLRLFDTP
Substitution	normalised enrichment score
P13V	0.881
K6C	0.109
P13W	0.48
T3S	0.155
T3Y	-0.893
R8V	0.547
H1L	0.506
T12Q	0.543
R5Q	0.31
L7Q	0.967
R8G	-0.276
L9Y	1.01
K6R	0.668
H1C	0.545
F10Q	-0.0671
K2G	-0.0938

A few entries again (sample 3):
Sequence	bound/input enrichment
CCAUCAGUAUAUUAUAGUCAGUCACCUGCAUAUAACUCCCAGUAUCUUCUCAGACCAGCUGCUAAUGUAACUCCCACCAAGGGUCCAGUUUAUGGCAUGAAUAGGCUUCCACCCCAACAA	0.844 ratio
CAGGAGGUCUUCGACUCCAAGGUGUCCAUCCAGGUGCACCUGGCGGUGAAGCACAGCAAUGAGAAGAAGAUGUACCGCUGCACGGCCUGCAACUGGGACUUCCGCAAGGAGGCUGACCUG	0.0674 ratio
CAGUGGGACGGGGAGCAAAGCCCCAGAGGGGAGCGAAACAGGUGGAAGUACGAGGAAUUUUUAGAUCAUCCAGGCCAUAUCCACAGUAGUCCUUGUCAUGAAAGGCCCAACAAUGUCUCU	0.292 ratio
UUAUGUUUAUUGAUUAAAUAAUAUCAUUUGUCUUUCUGCAGUUAUGAGGCUGCUAGCCUGUGAGGGAAAACCUGUUUGUCUUAUUAGAGUUUCUCCCAAAAUGGUUUCAAAUUGGGAACU	0.368 ratio
GACCCUUACUUCCACGAUCGUGUUGCUUCCUUCUAUGAAGGUCAGGUUGCAAUAUGGGAUCUUAGAAAAUUUGAGAAGCCAGUUUUGACUUUGACUGAACAACCAAAGCCCUUGACAAAG	0.292 ratio
